Published values from different studies.
Each numbered part is a random draw from the data of one study; scales do not carry over between parts.

Series 1
Target: RNA binding protein fox-1 homolog 2, RRM domain, GST-SBP tag (RBFOX2, Homo sapiens, UniProt O43251-10, residues 100-194)
Method: RNA Bind-n-Seq
Molecule type: RNA
Medium: in vitro
Concentration: 365 nM
Setting: natural RNA segment, single round, ends assumed
Baseline: no-protein control
Reading: higher = stronger binding
Measurement: RBNS enrichment (R)
Residues (chain): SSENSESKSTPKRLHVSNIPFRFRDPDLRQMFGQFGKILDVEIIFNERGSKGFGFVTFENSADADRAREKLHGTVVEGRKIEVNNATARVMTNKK
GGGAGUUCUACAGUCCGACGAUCCUUUUUUAUUGUAAAAAGAGAAUCAACUCAACUGUCAGUACUGAGAAGGGAUUUGGGUGUAGGGGCACCUGGCCUCCGGGAGCCAUUGGGCUGUAGACUGGUGUCGGUAUUGGAAUUCUCGGGUGCCAA: 1.13
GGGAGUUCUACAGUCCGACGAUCUCCGCCCACCGACGCCAUGGGCACACUGCUCCCUCCUCCUCCUCCAGCUACUUUGUGUUGAACACAAUUGAUUCUCCAGGUGCUCAUGGUGCAGGAAAACAGGACAGACAUGGAAUUCUCGGGUGCCAA: 0.843
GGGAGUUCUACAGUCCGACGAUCAAGCAGUCAAGCCACAGAAACCCAGCAUGUCCCUGUCACAAUCUCAUGGGCACCUUGAUCAUGUCUUAACCUUCCCUUAACCUUGGGGCUCCCAAGCCAGAGUCAAGGUCUGGAAUUCUCGGGUGCCAA: 8.39
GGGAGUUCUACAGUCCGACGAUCAAAAGGUGCUUGAUGUGGCAGCAGACUUCUUGGAGACUGAAGCACAGUGGCUGCCAGACGCCUGCACUGGAAAGGCGAACGAACUCUGUAUCUUCCAUCGGUGGCCAAGGUGGAAUUCUCGGGUGCCAA: 0.57
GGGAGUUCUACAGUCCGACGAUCCAGCCCUGCCAGGGACUUUGCUUGUACUUGUAAAUGGUGAGGGUUGGUGAGCUGCUGGUAUUGCUGAAGGCAGGGUGGACCCCUCACUUGCUUCCUAGUGCACUCGUUCAUGGAAUUCUCGGGUGCCAA: 4.65
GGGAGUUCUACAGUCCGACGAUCUGACGACGUCCCCCUUGGGGACAUGUUGUUACCAGAAGAGGAAGUUUUGUUCUCUUUGUUGGUUGUUUUUCCUUAAUCUUUCUCCUUUCUAUCUGAUUUAAGCAAAAGAGUGGAAUUCUCGGGUGCCAA: 0.486
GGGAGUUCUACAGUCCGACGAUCGUUAACUUCAUUCUUUCCUGCUGUUAGGAACAUAGGCCUAAAAUUGUCUCUUGAGUUUGCUCACCCUUUUGUUUUGGUAGGGUUUUUUUGUUGUUGCUGUUAUUGUUUCUUGGAAUUCUCGGGUGCCAA: 1.32
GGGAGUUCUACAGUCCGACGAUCAUUAAAGGCAUGUGCCACUAUGCAAGUUUAUGUGGUGCUGGGCACAGAACCCAGGGCUUAAUGCGUGGCAGCUAAGCACUCUAUCAACUGAGUUACAUCUCCAUCCUGUAUGGAAUUCUCGGGUGCCAA: 6.44
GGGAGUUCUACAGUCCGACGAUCGUUCCUCAGCAGUGUAGAUGAAUUCACAUCAUUUAUGUUUUAACGGCGUUUUUUUGGAAAGCAUAAAUUGUGACAUCAGUUAUCAUGCUACUUCUUGGUGACAUAAUAUAUGGAAUUCUCGGGUGCCAA: 0.594
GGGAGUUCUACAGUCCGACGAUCUAUUUUAAUGUAGAAAAUGUGACAUCUCGUUAUAAAUGAAAAUAAAUGUUAAAUUAAAUGGAAGUUACCUGAAAUGACUCUGUGUUUUCUCUCGAGAGGAACGGCAGCAAUGGAAUUCUCGGGUGCCAA: 0.409
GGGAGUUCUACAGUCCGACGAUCAGAGCUCGAGAAUGAACUGAACACAAAUGAGAAGAGAGAGGUCUGCCCUUGGCGGGAGCUUUGUGGGGGCGAGCCUGAAGAGGAAGGAACAGUGCUACUUCUAAGUGAUGUGGAAUUCUCGGGUGCCAA: 1.72
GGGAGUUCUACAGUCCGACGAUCACACAAGUCAUCCUGCCUGGCUGCAGUUAGCUGUCAUUGUCAUUGAAAAUCUUAGUGUCUCCUGGUGGAGGGGAAGGACCGGCUGCCUCACCCCACUCCCUGAUCUCACAUGGAAUUCUCGGGUGCCAA: 0.238

Series 2
Target: Fragile X messenger ribonucleoprotein 1, C-terminal low-complexity region (Fmr1, Mus musculus, UniProt P35922)
Method: RNA Bind-n-Seq
Molecule type: RNA
Medium: in vitro
Concentration: 200 nM
Setting: whole 134-nt RNA, ends assumed
With: 150 mM KCl
Baseline: input library
Reading: higher = stronger binding
Measurement: log2 enrichment
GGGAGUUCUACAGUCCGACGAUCUCAAGUCCUGUGCUACACAUCGUAUGUACCGAAUCGGCCCGGGCCCGGCCCGGGGAAAGUAUUAUGUUACGCCGUUCGGAUCUGCACUUCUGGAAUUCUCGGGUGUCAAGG: -0.899
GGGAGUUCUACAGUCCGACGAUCAGUCCUGUGCUACACAUCGUAUGUACCGAAUCGGGGAGGGGUUUUUGGGGUUUGGGGAAAGUAUUAUGUUACGCCGUUCGGAUCUGCACUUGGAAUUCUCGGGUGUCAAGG: 1.04
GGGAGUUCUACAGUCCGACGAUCCACAGACAACACGCACCCAAACAGACACAGAGGGAAGGGGUUGGGAUGGGGACAGGGUGCACAGCAGGGCGGGGUAGGACCCCAGCCCCUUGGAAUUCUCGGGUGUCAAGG: 1.27
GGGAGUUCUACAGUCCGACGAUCUUGGAAGAGACCAGUGAAAUUCGAUCUGACUUGGAGCAGUUAGACCACGAGGUUAAGGAGGCUCAGACACUGUGCGAUGAACUCUCAGUGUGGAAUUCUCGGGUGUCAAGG: 0.646
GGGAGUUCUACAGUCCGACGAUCUGGCCCUGGUGGCAUGCGGGGAGGAAGAGGUGGCCUCCUGGAUCGUGGUGGUCCCGGUGGAAUGUUCAGAGGUGGCCGUGGUGGAGACAGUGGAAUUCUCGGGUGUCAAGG: 0.00923
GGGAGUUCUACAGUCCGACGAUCCCUCAAGUCCUGUGCUACACAUCGUAUGUACCGAAUCGGGAGGGUGGGAGGGAAAGUAUUAUGUUACGCCGUUCGGAUCUGCACUUCCAGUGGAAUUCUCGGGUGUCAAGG: 1.62
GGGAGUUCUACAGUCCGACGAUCAAGUCCUGUGCUACACAUCGUAUGUACCGAAUCGGGGUUUGGGUUUGGGGUUUGGGGAAAGUAUUAUGUUACGCCGUUCGGAUCUGCACUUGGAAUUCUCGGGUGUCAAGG: 0.721
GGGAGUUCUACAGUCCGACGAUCGUCCUGUGCUACACAUCGUAUGUACCGAAUCGGAAAAAGGGAAAAAGGGGAAAAAGGGAAAGUAUUAUGUUACGCCGUUCGGAUCUGCACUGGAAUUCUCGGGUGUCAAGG: -0.123
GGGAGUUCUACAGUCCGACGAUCCUCAAGUCCUGUGCUACACAUCGUAUGUACCGAAUCGGUUUGGAAAAAGGAGGAAAGUAUUAUGUUACGCCGUUCGGAUCUGCACUUCCAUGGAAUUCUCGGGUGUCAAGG: -0.165
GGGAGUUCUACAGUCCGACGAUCCCUGUGCUACACAUCGUAUGUACCGAAUCGGGUUUUUGGGUUUUUUUGGGAAAAAAAGGGAAAGUAUUAUGUUACGCCGUUCGGAUCUGCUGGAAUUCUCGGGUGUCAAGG: -0.745

Series 3
Target: Histone acetyltransferase KAT6A, both winged helices, GST fusion (KAT6A, Homo sapiens, UniProt Q92794, residues 1-181)
Method: protein binding microarray
Molecule type: double-stranded DNA, one strand shown
Medium: in vitro
Concentration: not given
Setting: 8-mer, flanks averaged, mean of 2 arrays, mostly near background
Baseline: not given
Reading: higher = stronger binding
Measurement: E-score
Target sequence (chain): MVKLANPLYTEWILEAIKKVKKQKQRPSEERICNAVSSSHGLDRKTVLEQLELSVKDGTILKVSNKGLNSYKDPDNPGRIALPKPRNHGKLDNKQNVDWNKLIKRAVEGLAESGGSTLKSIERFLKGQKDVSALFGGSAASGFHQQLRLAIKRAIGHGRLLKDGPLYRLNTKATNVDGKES
CGTGGCGC: 0.325
CGTCTCTA: -0.00862
GAATTCCC: -0.0474
GGATTACA: -0.0736
AGCACAAT: -0.193
ACGTGAAA: 0.0156
CGGACGTC: 0.212
GGCCAGCA: -0.0597
AGATGGTC: -0.163
CTAAGGGA: -0.114
CCCTCAGA: -0.24
CGGAGGGC: 0.168
GGTGGGCA: -0.175
GTGGTGAA: 0.0243
CATCTATA: 0.0278
TCAGCGGA: 0.195
AGAGGGGA: -0.212
CTTGCGTA: 0.101
GTCAATGA: -0.0452
CAGATAAG: -0.0817
GCACCTCC: -0.0199
AAACCATG: -0.063
CTCTATAA: -0.088
ACATGGTA: 0.00645
TCCGAAGA: 0.0196

Series 4
Target: Prothrombin, mature alpha-thrombin (F2, Homo sapiens, UniProt P00734)
Method: aptamer microarray, sandwich
Molecule type: DNA with 2'F-ANA
Medium: in vitro
Concentration: 200 nM
Setting: whole 15-mer aptamer, many near background
With: Cy3 exosite-II aptamer, 400 nM
Reading: higher = stronger binding
Measurement: mean fluorescence intensity
Sequence: GGTTGGTGTGGTTGG
2'F-ANA at 2 6 10 11 13: 101 a.u.
2'F-ANA at 5 8 9 10 12 15: 52.4 a.u.
2'F-ANA at 3 6 9 11: 946 a.u.
2'F-ANA at 3 4 8 9 10 14 15: 176 a.u.
2'F-ANA at 1 4 5 6 8 9 12 13: 70.6 a.u.
2'F-ANA at 1 5 9 11 12: 90.7 a.u.
2'F-ANA at 2 5 10 11 12 14: 42.5 a.u.
2'F-ANA at 3 5 6 7 9 11 12 13 14 15: 73.1 a.u.
2'F-ANA at 1 4 5 6 7 8 10 11 12 13: 50 a.u.
2'F-ANA at 2 8 11 12 14 15: 184 a.u.
2'F-ANA at 2 4 5 6 7 9 13 15: 56.1 a.u.
2'F-ANA at 3 6 10 11 12 14: 428 a.u.
2'F-ANA at 2 3 6 7 9 12 13: 705 a.u.
2'F-ANA at 1 2 4 6 7 10 11 13 15: 50.4 a.u.
2'F-ANA at 2 3 5 7 9 10 12 14: 49.4 a.u.
2'F-ANA at 2 3 7 9 10 13: 375 a.u.
2'F-ANA at 5 7 10 12: 50.5 a.u.
2'F-ANA at 1 2 3 5 7 9 10 13: 43.1 a.u.
2'F-ANA at 2 4 5 7 8 9 11 12 13 15: 76.6 a.u.
2'F-ANA at 3 5 6 7 8 9 10 11 12: 63.2 a.u.
2'F-ANA at 1 5 9 13 15: 69.6 a.u.
2'F-ANA at 4 5 7 8 9 11 12 13 15: 76.1 a.u.
2'F-ANA at 1 2 4 5 6: 55.7 a.u.
2'F-ANA at 2 4 7 8 13 14 15: 134 a.u.
2'F-ANA at 1 2 5 6 7 8 10 12 13: 55.3 a.u.

Repeated from above (series 4):
2'F-ANA at 2 3 7 9 10 13: 375 a.u.
2'F-ANA at 5 7 10 12: 50.5 a.u.
2'F-ANA at 1 2 3 5 7 9 10 13: 43.1 a.u.
2'F-ANA at 2 4 5 7 8 9 11 12 13 15: 76.6 a.u.
2'F-ANA at 3 5 6 7 8 9 10 11 12: 63.2 a.u.
2'F-ANA at 1 5 9 13 15: 69.6 a.u.
2'F-ANA at 4 5 7 8 9 11 12 13 15: 76.1 a.u.
2'F-ANA at 1 2 4 5 6: 55.7 a.u.
2'F-ANA at 2 4 7 8 13 14 15: 134 a.u.
2'F-ANA at 1 2 5 6 7 8 10 12 13: 55.3 a.u.
